Results of several laboratories.
Lines come from different studies, so protocols differ. Several values in a cell are separate wells, animals, samples, runs or records.
Target: Receptor tyrosine-protein kinase erbB-4 (ERBB4, Homo sapiens, UniProt Q15303)

O=C(Nc1ccc(Oc2ncnc3[nH]cc(-c4ccccc4)c23)c(F)c1)c1c2n(n(-c3cc(F)ccc3F)c1=O)CCCC2 — inhibition (enzyme activity, inhibitor; 0.5 µM): 19%
COc1ccc(C(=O)/C=C/c2ccccc2-c2c[nH]c3ccc(C#N)cc23)c(O)c1 — inhibition (enzyme activity, inhibitor; 20 µM): 1%
Nc1ncc(-c2cc(-c3cnn(CC(F)(F)F)c3)ncc2F)nc1C(=O)NC1CNCC(F)C1 (stereo not drawn) — remaining activity (enzyme activity; 1 µM; relative to: DMSO control): 96.7%
C=CC(=O)Nc1cccc(-c2cnc3[nH]cc(C(=O)NC(C)(C)C)c3n2)c1 — inhibition (enzyme activity, inhibitor; 0.1 µM): 4%
Cc1nc2c(F)cc(-c3nc(Nc4ccc(CNC(=O)CCCCCCC(=O)NO)cc4)ncc3F)cc2n1C(C)C — inhibition (enzyme activity, inhibitor; 1 µM): 36%
Nc1ncc2c(n1)-c1c([nH]c3ccc(C4=CCOCC4)cc13)CCC2 — remaining binding (binding, competition with immobilised ligand; 1 µM): 97%
Cc1cccc(O[C@H]2CCC[C@@H](C(C)CNCc3ccncc3)C2)c1 (relative stereo) — inhibition (enzyme activity, inhibitor; 10 µM): 1%
COCC12C(=O)NC3C4(C(OC)CC1O)C1CC5(O)C(OC)C(O)C(OC(C)=O)(C1C5OC(=O)c1ccccc1)C3(O)C(OC)C24 (stereo not drawn) — remaining activity (kinase activity, inhibitor, ProQinase kinase profiling; 25 µM; relative to: control): 116% and 111%
CCN1CCN(Cc2ccc(C(=O)Nc3ccc(C)c(NCc4cnc5[nH]ccc5c4OC)c3)cc2C(F)(F)F)CC1 — remaining binding (binding, competition with immobilised ligand; 1 µM): 0.75%
CNC1C[S+]2CC[S+]3CC[S+](C1)[Ru-4]321([N]=C=S)[n]2c3ccc(OC)cc3c3c4c(c5cc(F)c[n+]1c5c32)C(=O)NC4=O (stereo not drawn) — remaining binding (KinomeScan; 0.1 µM; relative to: untreated): 100%
Cc1ccc(-c2c(/C=C(\C#N)C(=O)NC(C)C)n(CCCO)c3ncnc(N)c23)cc1 — remaining binding (cell-free assay, competition with immobilised ligand; 1 µM): 99%
NC(=O)C[C@H]1CCc2sc3ncnc(O[C@H]4CC[C@H](N5CCOCC5)CC4)c3c21 — inhibition (enzyme activity, inhibitor; 10 µM): 8%
CC(=O)N1c2ccc(-c3ccc(CNC(=O)c4cn5cc(-c6cnc(N)nc6)nc(N6CCOCC6)c5n4)cc3)cc2CC[C@@H]1C — remaining binding (KINOMEscan; 10 µM): 77%
COc1cc(OC)c(F)c(/C=C/c2cnc3ccn(S(=O)(=O)c4cn(CCF)cn4)c3n2)c1F — inhibition (1000 nM): 9.2%
O=C(Cc1ccc(OCc2ccccc2)cc1)NC1(C(=O)O)CCN(C(=O)c2ccc(-c3cccc(Cl)c3)cc2)CC1 — activity vs control (enzyme activity, inhibitor; 10 µM): 108%
COc1cc(Nc2nc(C)cc(-c3cnn4nc(OC)ccc34)n2)cc(C(F)(F)F)c1 — remaining activity (inhibitor; 1 µM; relative to: control): 90%
CNS(=O)(=O)Nc1nccc(Cc2c(C)c3ccc(Oc4ncccc4F)cc3oc2=O)c1F — remaining binding (binding, competition with immobilised ligand; 10 µM): 95%
c1ccc2c(Nc3cc(C4CCC4)[nH]n3)nc(Nc3ccc4nc[nH]c4c3)nc2c1 — remaining activity (enzyme activity, inhibitor; 0.25 µM): 32%
CN1CCN(Cc2ccc(NC(=O)c3cccc(C#Cc4cnc(N)c5ncccc45)c3)cc2C(F)(F)F)CC1 — remaining binding (cell-free assay, competition with immobilised ligand; 50 nM): 53%
COc1ccc(NC(=O)Nc2ccc3c(c2)C(=O)N(C(C)CO)CC(C)C(CN(C)Cc2ccc4c(c2)OCO4)O3)cc1 (stereo not drawn) — remaining activity (kinase activity, KinaseProfiler; 0.03 µM, species human; relative to: control): 97%
COc1c(Cl)cccc1Nc1c(-c2ccncc2C#C[C@@]2(C)CCCN2C(=O)/C=C/CN(C)C)[nH]c2c1C(=O)NCC2 — remaining binding (binding, competition with immobilised ligand; 3 µM): 0%
